Published values collected from several papers.
A part holds a random share of what one study measured.

Set 1 — method: RNA Bind-n-Seq; form: RNA; matrix: in vitro; concentration: not given; relative to: input RNA pool; reading: higher = stronger binding
Target: RING finger protein unkempt homolog, zinc fingers 1-6, GST-SBP tag (UNK, Homo sapiens, UniProt Q9C0B0, residues 30-357)
Chain of UniProt Q9C0B0 (30-357, looked up): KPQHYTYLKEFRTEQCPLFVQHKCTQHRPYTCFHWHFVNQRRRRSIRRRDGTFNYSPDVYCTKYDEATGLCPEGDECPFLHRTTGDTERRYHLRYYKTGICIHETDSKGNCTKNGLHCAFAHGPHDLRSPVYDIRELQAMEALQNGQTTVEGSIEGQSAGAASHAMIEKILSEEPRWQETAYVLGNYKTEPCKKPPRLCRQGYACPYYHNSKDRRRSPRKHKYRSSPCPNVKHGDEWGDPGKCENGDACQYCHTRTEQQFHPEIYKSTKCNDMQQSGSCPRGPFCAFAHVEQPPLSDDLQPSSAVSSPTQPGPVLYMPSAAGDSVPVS
Notes: RNA with constant flanks, human and mouse sites, ends assumed
Sequence	bound/input enrichment [ratio]
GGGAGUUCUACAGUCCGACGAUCCAGUAGCGCUUCAGCCAGCAGUUGUAGAAUGCUAUUUAUUCGUGUCUGUAAGUUUGUACAUAACCCUAACCUCGUAGGCAAGUUUGAGUUUUCUUUCCUUUGAUGCAGAUGCUUGGGUUUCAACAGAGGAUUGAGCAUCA	0.366
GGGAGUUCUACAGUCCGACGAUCGCAGGACGGGGAGGGACUGCGGCGGAGAUACCGGUCCCCGGGCAAAAGCAGGGACCGCGGUUUAGCUUCCAACGCGUGCUCUCUGGGCGGGGUGCGGCGGGGGAUGUGCCUGCCCAGUCCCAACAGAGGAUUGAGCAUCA	0.45
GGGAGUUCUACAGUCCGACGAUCUGCCACCAUACCCAAUGGAUAGAACUUGAUUUUUAAAAGCUUGUUUUGUCAACUUGUAUGUAGUACAGUGGCCAGUGAUCGCCUAGCCUGCACGAGGCCCCGGGGUUGAUCUCCCGCAUCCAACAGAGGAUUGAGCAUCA	0.186
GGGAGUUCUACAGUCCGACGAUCUUGUAUCGCUCUUACCAUAUGCCUGUUUGCAAAUCAUGAUCUUCACUGGGCUGGAAUUUUAUUAGAUUUUUGUUUUGUUUUUCCCUUUUUUCUCCUAGGCUGUCACUCUGUUGUUCUCCCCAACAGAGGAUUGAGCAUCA	68.1
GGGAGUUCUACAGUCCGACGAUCCGCUGCUGGACAUAUGAGACAUCGCUGCUGGUAGAAGAGGCCAUUAGUGAGGAGCUUCCCUAUAGUGAAUACUUCGAGUACUUUGCCCCAGACUUCACACUUCAUCCAGAUGUCAGCACCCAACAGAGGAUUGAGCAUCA	0.558
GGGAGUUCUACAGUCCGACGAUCAUGUAUAAGAAUUUUGUUUAUCUUUUAAGAGUAGUAAAGUACUUUGAGUGUUUGGGGGUUCAACACACACAUGCAAUUUUGCUUAACAAAAGUAUUUUAUAAUACAGUUUCAUACAGAAUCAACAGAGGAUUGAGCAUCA	0.34
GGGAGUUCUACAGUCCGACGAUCUCACUUCAAGGGUACCUGAAGCGAAUUGGCACCAAAGCAGCAGCUGUAUUGCCGCAGUUCUAGCUUCACCUUCACGAUGUUUCCCUUGGUCAAAAGCGCACUAAAUCGUCUCCAAGUUCGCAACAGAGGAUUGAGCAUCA	0.102
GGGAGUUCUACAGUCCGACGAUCGGUAAGACUGAGGCACCAGUGAGUGAGCAAACCACUUUAGGCCAGGAGAAUUACAUAUUCUCUAGAGGCCAAGCAUCUGAUGAAAAGAGCCUGCCUAGAGAUUUUAUUCCGGCAGCACAUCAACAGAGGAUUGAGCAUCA	0.136
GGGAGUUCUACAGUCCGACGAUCACCAUCUAUUCUGCAACCAAGACUUUUGUAGAUUUCUUCUCUCAGUGCCUCCAUGAGGAGUAUAGGAGCAAGGGCGUCUUUGUGCAGAGUGUCCUGCCAUACUUCGUAGCUACAAAACUGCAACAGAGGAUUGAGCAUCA	0.254
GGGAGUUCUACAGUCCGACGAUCGUAUUAAGUUCCUCUCCUGCUGAUAAAUUGGAUUCUCGAUUUAGGAAGGGAACUUUUGGUACUAGAGAUGCUGAAACAGAUGGACCUGAGAAAGGAGAUCAAAAAGGCAAGGCUUCUCCACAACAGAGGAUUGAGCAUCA	0.244
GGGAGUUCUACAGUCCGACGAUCGAAGCACAGCGAUGGCAGGCAAGGCUGAUUUGGAGAGGAAGGUGAUGUUGGCAUUUCUCAACUAGGAAUGCACAGAGUACCACUCAAUGGUGAGCUUGCAAGAUUUGCACAAACUCAUGGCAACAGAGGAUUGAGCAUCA	0.169

Set 2 — method: RNA Bind-n-Seq; form: RNA; matrix: in vitro; concentration: 200 nM; notes: whole 134-nt RNA, ends assumed; together with: 150 mM KCl; relative to: input library; reading: higher = stronger binding
Target: Ras GTPase-activating protein-binding protein 1, full length (G3BP1, Homo sapiens, UniProt Q13283)
Chain of UniProt Q13283 (whole entry, looked up): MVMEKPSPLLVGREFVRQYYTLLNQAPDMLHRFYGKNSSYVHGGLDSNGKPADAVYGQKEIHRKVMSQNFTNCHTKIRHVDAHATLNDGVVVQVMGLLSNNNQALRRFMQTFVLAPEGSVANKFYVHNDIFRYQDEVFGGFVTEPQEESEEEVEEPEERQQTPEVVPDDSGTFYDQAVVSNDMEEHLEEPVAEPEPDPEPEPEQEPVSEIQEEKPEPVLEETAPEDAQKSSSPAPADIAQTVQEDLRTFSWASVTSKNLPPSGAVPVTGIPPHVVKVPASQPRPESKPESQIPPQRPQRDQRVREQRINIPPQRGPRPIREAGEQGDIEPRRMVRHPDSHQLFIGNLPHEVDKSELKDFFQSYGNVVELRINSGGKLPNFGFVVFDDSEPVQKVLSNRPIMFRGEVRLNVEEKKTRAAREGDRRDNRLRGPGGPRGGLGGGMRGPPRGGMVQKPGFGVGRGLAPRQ
Sequence	log2 enrichment
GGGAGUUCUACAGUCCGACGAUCUCCUCAAGUCCUGUGCUACACAUCGUAUGUACCGAAUCGGUUUGGUGGAGGAAAGUAUUAUGUUACGCCGUUCGGAUCUGCACUUCCAGCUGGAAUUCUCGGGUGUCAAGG	-0.631
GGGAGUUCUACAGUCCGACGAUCCAAGUCCUGUGCUACACAUCGUAUGUACCGAAUCGGGAGGGUUUGGGAAAAAGGGAAAGUAUUAUGUUACGCCGUUCGGAUCUGCACUUCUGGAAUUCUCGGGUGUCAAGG	0.574
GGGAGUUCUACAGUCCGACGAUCUCAAGGGUUAUACACGGAAAGCCGCUGCGCUGGAAGCGAUGAAGGACUACACCAAAGCCAUGGAUGUGUACCAGAAGGCGCUAGACCUGGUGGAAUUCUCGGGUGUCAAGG	-0.68
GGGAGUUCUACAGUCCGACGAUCAAGUCCUGUGCUACACAUCGUAUGUACCGAAUCGGGUUUUUGGGAAAGGGUUUGGGAAAGUAUUAUGUUACGCCGUUCGGAUCUGCACUUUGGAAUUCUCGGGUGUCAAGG	-0.0689
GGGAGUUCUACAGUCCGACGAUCCUGUGCUACACAUCGUAUGUACCGAAUCGGGGAAAAAAAGGGGAAAAAAAGGAAAAAAAGGAAAGUAUUAUGUUACGCCGUUCGGAUCUGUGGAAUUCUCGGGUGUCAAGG	-0.502
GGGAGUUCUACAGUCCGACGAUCCACAGACAACACGCACCCACACAGACACAGAGGGAAGUGGUUGGGAUGGGGACAGGGUGCACAGCAGGGCGGGGUAGGACCCCAGCCCCUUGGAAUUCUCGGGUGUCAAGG	1.91
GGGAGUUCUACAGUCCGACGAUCAAGUCCUGUGCUACACAUCGUAUGUACCGAAUCGGGUUUUUGGGUUUUUGGGUGGGAAAGUAUUAUGUUACGCCGUUCGGAUCUGCACUUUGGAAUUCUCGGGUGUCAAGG	-0.11
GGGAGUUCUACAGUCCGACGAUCCAAGUCCUGUGCUACACAUCGUAUGUACCGAAUCGGCCCGGGCCCGGGCCCGGGGAAAGUAUUAUGUUACGCCGUUCGGAUCUGCACUUCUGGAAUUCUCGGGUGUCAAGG	-1.18
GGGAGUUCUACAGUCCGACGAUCAGUCCUGUGCUACACAUCGUAUGUACCGAAUCGGCCCCCGGCCCCCGGGGCCCCCGGGAAAGUAUUAUGUUACGCCGUUCGGAUCUGCACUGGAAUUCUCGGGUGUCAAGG	-0.953
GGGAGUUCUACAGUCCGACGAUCUGGCCCUGGUGGCAUGGGGGGAGGAAGAGGUGGCCUCAUGGAUCGUGGUGGUCCCGGUGGAAUGUUCAGAGGUGGCCGUGGUGGAGACAGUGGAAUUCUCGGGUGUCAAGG	0.337

Set 3 — method: RNA Bind-n-Seq; form: RNA; matrix: in vitro; concentration: 365 nM; relative to: no-protein control; reading: higher = stronger binding
Target: RNA binding protein fox-1 homolog 2, RRM domain, GST-SBP tag (RBFOX2, Homo sapiens, UniProt O43251-10, residues 100-194)
Notes: natural RNA segment, single round, ends assumed
Target sequence (chain): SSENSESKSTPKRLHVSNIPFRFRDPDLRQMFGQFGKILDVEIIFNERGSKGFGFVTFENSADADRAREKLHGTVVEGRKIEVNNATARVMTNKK
Sequence	RBNS enrichment (R)
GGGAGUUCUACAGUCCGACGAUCCCCACAUCCUCUUGGGGACUCAGAGCACUCCUCUCCUUCCACUCCCAAAGACACGGGUAUUCCAGACCCGGUCUGCCUCCCUACCAGCCUUCUUAGGCUCUGUCGUGUGAUGGAAUUCUCGGGUGCCAA	0.439
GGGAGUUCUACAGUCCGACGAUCGCCAGCCUGUCAUGCCCAGUCCCUCCCACCAGUGCCCUGGGCCUGUCCUGGGUCCCCUGACACAUUUCUUGCCCUUUUAUACAAUUUUCAAUUAAAACACCUAUUUUGUAUGGAAUUCUCGGGUGCCAA	0.861
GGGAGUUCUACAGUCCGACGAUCGGAGGCCCCCAGGGGUGGUAGAGGCUGGAAGGAAGCCACAUCAGGAGGACGCCACUCCGGCCCUUCACCCUUGCCAAGUGAGCUGCUCACAGUGUGGUCAGGGCUGCGCGUGGAAUUCUCGGGUGCCAA	0.263
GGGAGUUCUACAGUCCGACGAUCCUCCCUAGUCACCUCCAUUAACCACAGACUAUGUAGCGCUGGCCCUAGCCUCUGGCAGAGCCUGUUCCUGGCCGAACUGUGGAUACAGCUGGAGGGUCAGGAACUGUUACUGGAAUUCUCGGGUGCCAA	0.323
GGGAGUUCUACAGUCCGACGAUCGAACACAGCCAUCUUGGCCCACUAUCAGGACCAGGCAUGACUCACCAGUGUCAUCUCUGCACUUCAGGAAUUGUCAACAACUGAGGUGGCCCUUGUCAGCACUUCUUUUUUGGAAUUCUCGGGUGCCAA	0.423
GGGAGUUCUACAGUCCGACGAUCCUUUUCCCAAUCCUUUGCCCUCAAAUCAGUGACCCAAGGGAGGGGGGGAUUUAAAGGGAAGGAGUGGGCAAAACACAUAAAAUGAAUUUAUUAUAUCUAAGCUCUGUAGCUGGAAUUCUCGGGUGCCAA	2.4
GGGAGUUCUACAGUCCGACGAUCUAGUUGGCUUUGUUUUCCUUAAAGGAUAAAACUUGCAUUGGACAAUCAAGGACAAUGAAGCCUCACCAAUAUAUUUCUUGUGGUGCUGGGAUCAAACCCAGGACAGCAUUUGGAAUUCUCGGGUGCCAA	0.414
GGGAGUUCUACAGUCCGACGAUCAUAGCCAUGCUGGUGGCCUUCUGAAUCACUGCAUGGAUGUCCCAGGAGGCAGCUCUCCCCACACAGCAGCACAGCCAUCACAGGAUUCCUUGUGUAGAAAUGAUUCCCAGUGGAAUUCUCGGGUGCCAA	0.522
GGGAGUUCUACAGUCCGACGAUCUCCACCUUACAAGCAAGGAAAGGAAUAUUGACCUUCAAACUCAUUCAGUGUUGGAGCUCUCUAUGAGGCCUUCUAUCCUUUGGCCCAUGCCUUGGAUGGAGACAGACACUUGGAAUUCUCGGGUGCCAA	0.266

Set 4 — method: aptamer microarray, sandwich; form: DNA with 2'F-ANA; matrix: in vitro; concentration: 200 nM; together with: Cy3 exosite-II aptamer, 400 nM; reading: higher = stronger binding; sequence: GGTTGGTGTGGTTGG
Target: Prothrombin, mature alpha-thrombin (F2, Homo sapiens, UniProt P00734)
Notes: whole 15-mer aptamer, many near background
Modification	mean fluorescence intensity [a.u.]
2'F-ANA at 2 4 7 9 11 13 14 15	81.3
2'F-ANA at 1 4 5 7 8 9 10 12 14	48.2
2'F-ANA at 1 3 4 5 7 11 12 14	123
2'F-ANA at 5 6 8 11 12 13 14 15	51.7
2'F-ANA at 1 3 10 13 14	58.4
2'F-ANA at 2 4 5 6 7 9 10 12 13	115
2'F-ANA at 1 4 6 7 13 15	76.8
2'F-ANA at 3 4 5 6 7 8 9 11 12 14	52.1
2'F-ANA at 1 2 3 4 6 9	138
2'F-ANA at 1 5 6 8 9 11 12 13 15	75
2'F-ANA at 4 10 12 15	117
2'F-ANA at 4 5 6 13 14	44.7
2'F-ANA at 1 2 4 5 8 10 13	44.8
2'F-ANA at 1 4 5 7 8 13 14 15	48.6
2'F-ANA at 3 7 9 10 11 12 13 14	450
2'F-ANA at 1 4 7 10 11 12 14 15	49.1
2'F-ANA at 3 8 12 13 15	1230
2'F-ANA at 2 4 5 6 7 8 9 10	49.1
2'F-ANA at 1 2 3 6 7 11 12 13	482
2'F-ANA at 1 3 4 10 12 15	79.4

Repeated from above (set 4):
Modification	mean fluorescence intensity [a.u.]
2'F-ANA at 1 2 3 4 6 9	138
2'F-ANA at 1 5 6 8 9 11 12 13 15	75
2'F-ANA at 4 10 12 15	117
2'F-ANA at 4 5 6 13 14	44.7
2'F-ANA at 1 2 4 5 8 10 13	44.8
2'F-ANA at 1 4 5 7 8 13 14 15	48.6
2'F-ANA at 3 7 9 10 11 12 13 14	450
